{"data": "Measured values pooled from the literature", "UCHL1": "Ubiquitin carboxyl-terminal hydrolase isozyme L1 (UCHL1, Homo sapiens, UniProt P09936)", "note": "Each line is one published result; not all experiments were run side by side.", "chain of UniProt P09936 (whole entry, looked up)": "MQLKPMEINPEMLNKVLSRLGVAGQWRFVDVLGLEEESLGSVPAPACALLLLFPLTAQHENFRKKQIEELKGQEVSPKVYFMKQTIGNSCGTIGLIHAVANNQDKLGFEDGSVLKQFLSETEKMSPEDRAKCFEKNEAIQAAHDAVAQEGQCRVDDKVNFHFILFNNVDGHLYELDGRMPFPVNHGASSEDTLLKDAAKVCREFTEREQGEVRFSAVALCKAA"}
{"SMILES": "Cc1c(C(=O)O)ccc2c3n(nc12)[C@@H]1[C@H](C3)N(CC2CC2)[C@@]2(C(=O)Nc3cc(Cl)ccc32)[C@H]1c1cccc(Cl)c1F", "assay": "phase Ia trial, refers to: Vomiting", "test system": "cancer patients", "setting": "oral, dose not given, all patients all grades", "quantity": "adverse event incidence", "value": "55.6%"}
{"SMILES": "COc1ccc2ccccc2c1-c1cc(CNC(=O)C(C)Cl)on1 (stereo not shown)", "target or system": "UCHL1", "assay": "covalent, intact protein LC-MS", "setting": "12.5 µM", "quantity": "labelling", "value": "12.8%"}
{"SMILES": "CC(C)n1c(Nc2cccnc2)nc2cnc(Nc3ccc(N4CCN(C)CC4)cc3)nc21", "assay": "refers to: Dizziness", "test system": "healthy male subjects", "setting": "oral, 100 mg, added: itraconazole", "quantity": "adverse event incidence", "value": "7.1%"}
{"SMILES": "CC[C@H](C)CCCCC(=O)N[C@@H](CCN)C(=O)N[C@H](C(=O)N[C@@H](CCN)C(=O)N[C@H]1CCNC(=O)[C@H]([C@@H](C)O)NC(=O)[C@H](CCN)NC(=O)[C@H](CCN)NC(=O)[C@H](CC(C)C)NC(=O)[C@@H](Cc2ccccc2)NC(=O)[C@H](CCN)NC1=O)[C@@H](C)O", "assay": "refers to: oral hypoaesthesia", "test system": "long-term haemodialysis patients", "setting": "IV, 0.75 mg/kg", "quantity": "adverse event incidence", "value": "85.7%"}
{"SMILES": "CC(=O)O[C@H]1C(=O)[C@@]2(C)[C@H]([C@H](OC(=O)c3ccccc3)[C@]3(O)C[C@H](OC(=O)[C@H](O)[C@@H](NC(=O)c4ccccc4)c4ccccc4)C(C)=C1C3(C)C)[C@]1(OC(C)=O)CO[C@@H]1C[C@@H]2O", "assay": "refers to: Dysgeusia", "test system": "patients with advanced solid tumours", "setting": "intravenous, dose not given, grade 3 and 4, possibly related to drug", "quantity": "adverse event incidence", "value": "0%"}
{"SMILES": "Cc1ccc(Sc2ccccc2N2CCNCC2)c(C)c1", "assay": "TEAE Vomiting", "test system": "elderly men", "setting": "oral, 10 mg single dose", "quantity": "adverse event incidence", "value": "0%"}
{"SMILES": "N#CC(=Cc1ccc(O)c([N+](=O)[O-])c1)C(=O)Nc1ccccc1C(=O)O", "target or system": "UCHL1", "assay": "covalent, intact protein LC-MS", "setting": "12.5 µM", "quantity": "labelling", "value": "24.1%"}
{"SMILES": "CC[C@H](C)[C@H](NC(=O)[C@H](Cc1ccccc1)NC(=O)[C@H](CCC(=O)O)NC(=O)[C@H](CCCCNC(=O)COCCOCCNC(=O)COCCOCCNC(=O)CC[C@H](NC(=O)CCCCCCCCCCCCCCCCC(=O)O)C(=O)O)NC(=O)[C@H](C)NC(=O)[C@H](C)NC(=O)[C@H](CCC(N)=O)NC(=O)CNC(=O)[C@H](CCC(=O)O)NC(=O)[C@H](CC(C)C)NC(=O)[C@H](Cc1ccc(O)cc1)NC(=O)[C@H](CO)NC(=O)[C@H](CO)NC(=O)[C@@H](NC(=O)[C@H](CC(=O)O)NC(=O)[C@H](CO)NC(=O)[C@@H](NC(=O)[C@H](Cc1ccccc1)NC(=O)[C@@H](NC(=O)CNC(=O)[C@H](CCC(=O)O)NC(=O)C(C)(C)NC(=O)[C@@H](N)Cc1cnc[nH]1)[C@@H](C)O)[C@@H](C)O)C(C)C)C(=O)N[C@@H](C)C(=O)N[C@@H](Cc1c[nH]c2ccccc12)C(=O)N[C@@H](CC(C)C)C(=O)N[C@H](C(=O)N[C@@H](CCCNC(=N)N)C(=O)NCC(=O)N[C@@H](CCCNC(=N)N)C(=O)NCC(=O)O)C(C)C", "assay": "refers to: Dizziness", "test system": "type 2 diabetes patients", "setting": "dose not given", "how to read": "reference: subjects", "quantity": "adverse event incidence", "value": "20%"}
{"SMILES": "FC(F)(F)c1ccc(CNc2ccc(Cc3c[nH]c4ncc(Cl)cc34)cn2)cn1", "assay": "refers to: Nausea", "test system": "patients with advanced solid tumours", "setting": "oral, dose not given, grade 1 and 2, possibly related to drug", "quantity": "adverse event incidence", "value": "30%"}
{"SMILES": "O=C1CCc2ccc(OCCCCN3CCN(c4cccc(Cl)c4Cl)CC3)cc2N1", "assay": "refers to: Rigidity", "test system": "patients, CYP2D6 ultrarapid metabolizers", "setting": "dose not given, long-acting oral or depot", "quantity": "adverse event incidence", "value": "14%"}
